# Assay results pooled from the literature.
# A part holds a random share of what one study measured.
# UniProt Q8NG66, sequence (whole entry, looked up): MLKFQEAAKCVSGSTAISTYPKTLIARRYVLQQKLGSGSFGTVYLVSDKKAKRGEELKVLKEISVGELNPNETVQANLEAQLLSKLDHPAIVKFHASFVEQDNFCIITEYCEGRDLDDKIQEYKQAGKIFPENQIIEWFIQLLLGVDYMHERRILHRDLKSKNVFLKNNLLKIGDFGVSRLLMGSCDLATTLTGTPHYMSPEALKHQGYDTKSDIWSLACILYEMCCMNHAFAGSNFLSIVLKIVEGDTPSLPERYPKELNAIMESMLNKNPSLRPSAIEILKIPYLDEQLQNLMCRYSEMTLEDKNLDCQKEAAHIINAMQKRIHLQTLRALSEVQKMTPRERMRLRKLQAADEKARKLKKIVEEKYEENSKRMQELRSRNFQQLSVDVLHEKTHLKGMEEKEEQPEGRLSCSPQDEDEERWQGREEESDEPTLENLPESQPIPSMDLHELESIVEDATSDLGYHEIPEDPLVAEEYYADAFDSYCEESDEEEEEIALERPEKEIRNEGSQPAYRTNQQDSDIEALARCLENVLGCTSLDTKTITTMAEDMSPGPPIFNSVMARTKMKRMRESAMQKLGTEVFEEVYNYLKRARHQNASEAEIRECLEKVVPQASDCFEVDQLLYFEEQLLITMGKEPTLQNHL
# UniProt P49759, sequence (whole entry, looked up): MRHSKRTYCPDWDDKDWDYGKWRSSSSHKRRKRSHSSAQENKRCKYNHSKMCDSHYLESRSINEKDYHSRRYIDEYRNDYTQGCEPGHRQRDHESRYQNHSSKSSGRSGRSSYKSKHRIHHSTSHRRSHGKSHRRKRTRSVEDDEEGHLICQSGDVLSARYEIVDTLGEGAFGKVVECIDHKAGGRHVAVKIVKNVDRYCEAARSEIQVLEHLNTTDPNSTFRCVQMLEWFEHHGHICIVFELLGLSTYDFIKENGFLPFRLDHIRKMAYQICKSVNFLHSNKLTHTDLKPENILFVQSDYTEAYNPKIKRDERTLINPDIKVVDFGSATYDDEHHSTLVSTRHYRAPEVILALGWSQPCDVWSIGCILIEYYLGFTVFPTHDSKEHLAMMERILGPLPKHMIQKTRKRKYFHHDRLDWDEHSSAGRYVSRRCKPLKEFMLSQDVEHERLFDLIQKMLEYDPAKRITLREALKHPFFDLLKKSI
# UniProt O76039, sequence (whole entry, looked up): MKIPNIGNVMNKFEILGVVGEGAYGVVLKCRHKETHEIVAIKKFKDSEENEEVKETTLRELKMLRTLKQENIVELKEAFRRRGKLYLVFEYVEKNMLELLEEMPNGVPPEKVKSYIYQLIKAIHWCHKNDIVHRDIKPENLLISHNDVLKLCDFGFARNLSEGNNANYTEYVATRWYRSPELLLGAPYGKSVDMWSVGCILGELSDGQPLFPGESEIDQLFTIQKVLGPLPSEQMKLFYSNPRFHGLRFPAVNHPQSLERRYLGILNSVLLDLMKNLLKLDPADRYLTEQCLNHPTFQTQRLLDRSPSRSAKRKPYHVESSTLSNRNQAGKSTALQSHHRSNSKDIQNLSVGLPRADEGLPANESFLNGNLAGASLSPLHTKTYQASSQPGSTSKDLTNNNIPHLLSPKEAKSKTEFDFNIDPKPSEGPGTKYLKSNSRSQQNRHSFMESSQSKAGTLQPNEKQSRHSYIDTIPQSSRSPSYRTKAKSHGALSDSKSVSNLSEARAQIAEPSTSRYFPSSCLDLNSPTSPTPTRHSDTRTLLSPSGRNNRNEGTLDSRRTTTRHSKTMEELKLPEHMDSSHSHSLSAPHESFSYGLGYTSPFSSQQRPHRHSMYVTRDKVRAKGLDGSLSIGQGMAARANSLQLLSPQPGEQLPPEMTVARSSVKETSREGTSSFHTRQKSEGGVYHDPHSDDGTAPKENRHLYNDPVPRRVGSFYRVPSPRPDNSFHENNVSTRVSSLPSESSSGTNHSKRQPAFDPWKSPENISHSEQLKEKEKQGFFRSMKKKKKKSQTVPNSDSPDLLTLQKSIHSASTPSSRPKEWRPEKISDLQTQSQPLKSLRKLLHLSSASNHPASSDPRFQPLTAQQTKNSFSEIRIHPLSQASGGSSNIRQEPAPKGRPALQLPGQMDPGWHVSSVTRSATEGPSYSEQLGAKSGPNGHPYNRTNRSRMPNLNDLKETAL
# UniProt Q15208, sequence (whole entry, looked up): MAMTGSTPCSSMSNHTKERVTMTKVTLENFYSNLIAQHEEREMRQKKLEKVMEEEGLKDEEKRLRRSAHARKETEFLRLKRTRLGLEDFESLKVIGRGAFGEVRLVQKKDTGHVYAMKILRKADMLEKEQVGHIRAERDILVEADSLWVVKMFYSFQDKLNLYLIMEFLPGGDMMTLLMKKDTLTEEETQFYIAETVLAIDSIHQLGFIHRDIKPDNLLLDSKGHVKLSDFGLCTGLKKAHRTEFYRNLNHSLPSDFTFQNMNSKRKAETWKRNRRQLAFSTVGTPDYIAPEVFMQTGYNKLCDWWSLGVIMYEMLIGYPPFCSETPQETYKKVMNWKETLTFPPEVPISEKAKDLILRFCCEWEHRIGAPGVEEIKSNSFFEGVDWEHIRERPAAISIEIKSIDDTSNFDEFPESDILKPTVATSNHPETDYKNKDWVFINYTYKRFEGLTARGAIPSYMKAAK
# UniProt P10721, sequence (whole entry, unmodified, looked up): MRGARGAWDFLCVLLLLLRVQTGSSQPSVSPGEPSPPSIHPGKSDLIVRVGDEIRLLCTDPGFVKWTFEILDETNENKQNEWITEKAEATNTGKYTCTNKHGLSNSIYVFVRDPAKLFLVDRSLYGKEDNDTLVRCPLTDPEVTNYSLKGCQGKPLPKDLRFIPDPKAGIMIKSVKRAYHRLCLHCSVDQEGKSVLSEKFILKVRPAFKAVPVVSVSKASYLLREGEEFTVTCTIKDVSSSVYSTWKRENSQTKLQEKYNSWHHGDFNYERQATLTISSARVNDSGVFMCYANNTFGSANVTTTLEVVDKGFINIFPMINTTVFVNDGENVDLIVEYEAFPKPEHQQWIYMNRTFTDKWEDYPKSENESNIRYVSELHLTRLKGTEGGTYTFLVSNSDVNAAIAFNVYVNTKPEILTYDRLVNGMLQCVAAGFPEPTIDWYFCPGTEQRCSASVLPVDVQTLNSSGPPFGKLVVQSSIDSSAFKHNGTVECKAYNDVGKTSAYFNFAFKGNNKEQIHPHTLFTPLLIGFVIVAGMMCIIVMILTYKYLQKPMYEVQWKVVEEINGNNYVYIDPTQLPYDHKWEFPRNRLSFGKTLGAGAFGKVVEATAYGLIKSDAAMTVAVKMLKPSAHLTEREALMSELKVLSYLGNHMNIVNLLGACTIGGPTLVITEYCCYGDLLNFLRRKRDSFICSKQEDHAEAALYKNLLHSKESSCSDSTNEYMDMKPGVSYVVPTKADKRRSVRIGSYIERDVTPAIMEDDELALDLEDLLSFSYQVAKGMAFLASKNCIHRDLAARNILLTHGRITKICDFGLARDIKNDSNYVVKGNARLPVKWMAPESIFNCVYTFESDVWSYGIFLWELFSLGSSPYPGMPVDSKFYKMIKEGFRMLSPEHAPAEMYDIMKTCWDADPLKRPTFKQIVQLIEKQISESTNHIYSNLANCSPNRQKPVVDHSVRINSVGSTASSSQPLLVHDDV
# UniProt Q9Y4K4, sequence (whole entry, looked up): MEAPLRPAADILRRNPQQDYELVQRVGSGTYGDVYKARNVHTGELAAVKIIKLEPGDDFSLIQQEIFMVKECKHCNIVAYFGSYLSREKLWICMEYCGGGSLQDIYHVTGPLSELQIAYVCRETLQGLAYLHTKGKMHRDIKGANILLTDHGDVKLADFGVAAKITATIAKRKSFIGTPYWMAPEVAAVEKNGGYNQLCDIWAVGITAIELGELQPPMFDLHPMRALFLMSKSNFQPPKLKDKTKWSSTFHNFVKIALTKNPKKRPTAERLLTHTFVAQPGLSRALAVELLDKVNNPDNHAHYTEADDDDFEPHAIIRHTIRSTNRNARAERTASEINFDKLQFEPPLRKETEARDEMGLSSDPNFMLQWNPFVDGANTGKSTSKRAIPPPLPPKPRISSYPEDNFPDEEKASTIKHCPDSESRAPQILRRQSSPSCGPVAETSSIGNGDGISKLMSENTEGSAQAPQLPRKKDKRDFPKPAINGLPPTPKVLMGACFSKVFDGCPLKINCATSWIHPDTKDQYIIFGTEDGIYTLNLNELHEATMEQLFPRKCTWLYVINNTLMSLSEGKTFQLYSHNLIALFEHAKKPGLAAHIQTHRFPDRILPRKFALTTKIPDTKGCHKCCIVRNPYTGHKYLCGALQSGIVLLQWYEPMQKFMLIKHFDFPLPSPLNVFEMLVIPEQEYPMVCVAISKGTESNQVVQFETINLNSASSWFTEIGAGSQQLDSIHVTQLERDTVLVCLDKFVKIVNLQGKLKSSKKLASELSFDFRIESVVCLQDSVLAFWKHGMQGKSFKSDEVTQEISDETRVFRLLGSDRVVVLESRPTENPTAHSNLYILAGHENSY
# UniProt O14733, sequence (whole entry, looked up): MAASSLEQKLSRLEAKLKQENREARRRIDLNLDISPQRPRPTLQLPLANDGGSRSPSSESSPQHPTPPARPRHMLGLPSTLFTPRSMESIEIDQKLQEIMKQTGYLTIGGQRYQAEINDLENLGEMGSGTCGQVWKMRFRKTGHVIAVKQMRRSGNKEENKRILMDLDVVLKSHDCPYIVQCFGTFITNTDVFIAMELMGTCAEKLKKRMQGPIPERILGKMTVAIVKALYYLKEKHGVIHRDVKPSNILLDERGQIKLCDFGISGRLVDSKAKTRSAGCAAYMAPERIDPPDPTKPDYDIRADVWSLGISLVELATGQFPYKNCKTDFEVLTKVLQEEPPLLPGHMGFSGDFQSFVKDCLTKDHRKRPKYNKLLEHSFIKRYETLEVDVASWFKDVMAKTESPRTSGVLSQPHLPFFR

# Series 1 — technique: PRP chromatography estimate; matrix: 1,9-decadiene/PBS; pH: 7.4
SMILES,logD
CC(C)C[C@@H]1NC(=O)[C@H](CC(C)C)NC(=O)[C@@H](CC(C)C)NC(=O)[C@H](C)NC(=O)[C@@H](Cc2cscn2)NC(=O)[C@H](C)NC(=O)[C@H](CCC(=O)N2CCCC2)NC1=O,-2.86
CC(C)C[C@@H]1NC(=O)[C@H](C(C)C)NC(=O)[C@H](Cc2cscn2)NC(=O)[C@H](CCC(=O)N2CCCC2)NC(=O)[C@@H](CCC(=O)N2CCCC2)NC(=O)[C@H](CC(C)C)NC(=O)[C@@H](CC(C)C)NC1=O,-1.96
CC(C)C[C@@H]1NC(=O)[C@H](Cc2cscn2)NC(=O)[C@@H](CC(C)C)NC(=O)[C@@H](CCC(=O)N2CCCC2)NC(=O)[C@H](CC(C)C)NC(=O)[C@@H](CC(C)C)NC(=O)[C@H](CC(C)C)NC1=O,0.456

# Series 2 — technique: protein-binding microarray; molecule type: hairpin DNA; matrix: in vitro; concentration: not given; relative to: not given; direction: higher = stronger binding
# Target: FOXO3, forkhead domain (mouse, UniProt Q9WVH4, residues 31-263)
# UniProt Q9WVH4, sequence (31-263, looked up): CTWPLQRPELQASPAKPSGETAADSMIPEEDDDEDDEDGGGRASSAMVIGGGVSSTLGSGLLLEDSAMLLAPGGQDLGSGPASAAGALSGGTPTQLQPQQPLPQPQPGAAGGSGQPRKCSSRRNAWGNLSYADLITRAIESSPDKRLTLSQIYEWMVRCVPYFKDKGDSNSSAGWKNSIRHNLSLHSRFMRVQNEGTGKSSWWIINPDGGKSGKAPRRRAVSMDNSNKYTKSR
# Notes: whole hairpin DNA, median over replicate spots
Sequence,median fluorescence
GAGGCCATGTAACCACCGCCTCCTGGCGGTGGTTACATGGCCTCACACTC (5mC at 16),4310 a.u.
GAGGCCATGCCGACAACGCCTCCTGGCGTTGTCGGCATGGCCTCACACTC (5mC at 11 33),4510 a.u.
GAGGCCATGTAACCAAAGCCTCCTGGCTTTGGTTACATGGCCTCACACTC,3640 a.u.
GAGGCCCTGTAACCAACGCCTCCTGGCGTTGGTTACAGGGCCTCACACTC (5mC at 7),3970 a.u.
GAGGCCATGTACACAACGCCTCCTGGCGTTGTGTACATGGCCTCACACTC,4640 a.u.
GAGGCCCGGTAACCAACGCCTCCTGGCGTTGGTTACCGGGCCTCACACTC (5mC at 7),4560 a.u.
GAGGCCATGCGACCAACGCCTCCTGGCGTTGGTCGCATGGCCTCACACTC (5mC at 10 34),4570 a.u.
GAGGCCATGCAAACACGGCCTCCTGGCCGTGTTTGCATGGCCTCACACTC (5mC at 16 28),4570 a.u.

# Series 3 — cell line: A-375; concentration: 100 µM; time: 18 h
Compound,viability [%]
CCN1CCN(c2cc3c(cc2F)c(=O)c(C(=O)O)cn3C2CC2)CC1,98.9
CC(C)Cc1ccc([C@H](C)C(=O)O)cc1,85.9
OCc1ccccc1O[C@@H]1O[C@H](CO)[C@@H](O)[C@H](O)[C@H]1O,104

# Series 4 — read-out: cell-free assay; technique: competition with immobilised ligand; concentration: 1 µM
# SMILES: CN(C)C(=O)Cn1cc(-c2nc(C3(c4ccc(-c5cnc(N)nc5)cc4)CC3)no2)cn1
target,remaining binding [%]
"EGFR (Homo sapiens, UniProt P00533, del752-759)",100
"EGFR (Homo sapiens, UniProt P00533, G719S)",100
"PRKG1 (Homo sapiens, UniProt Q13976)",89
"STK38 (Homo sapiens, UniProt Q15208)",84
"MAP2K7 (Homo sapiens, UniProt O14733)",87
"MAP4K5 (Homo sapiens, UniProt Q9Y4K4)",89
"NEK11 (Homo sapiens, UniProt Q8NG66)",90
"Tyrosine-protein kinase ABL1, non-phosphorylated (ABL1, Homo sapiens, UniProt P00519, H396P)",100
"DYRK1A (Homo sapiens, UniProt Q13627)",66
"AKT1 (Homo sapiens, UniProt P31749)",97
"Ribosomal protein S6 kinase alpha-4, C-terminal kinase domain (RPS6KA4, Homo sapiens, UniProt O75676)",86
"MYLK (Homo sapiens, UniProt Q15746)",72
"CLK1 (Homo sapiens, UniProt P49759)",100
"Ribosomal protein S6 kinase alpha-2, C-terminal kinase domain (RPS6KA2, Homo sapiens, UniProt Q15349)",100
"KIT (Homo sapiens, UniProt P10721, L576P)",84
"CDKL5 (Homo sapiens, UniProt O76039)",82

# Series 5 — species: mouse; matrix: microsomes or S9; concentration: 2 µM; time: 0.5 h
SMILES,remaining compound
c1ccc2c(c1)CC(n1ccnc1-c1cc3n(n1)CCNC3)CO2 (stereo not shown),39.9%
CN(C)S(=O)(=O)c1ccc(COc2ccc(-n3ccnc3)cc2)o1,70.8%
N#Cc1ccc(Cn2cnc3c([nH]c4ccccc43)c2=O)cc1,4.6%
Cc1nn(C(=O)c2cccnc2)c(C)c1Cc1c(F)cccc1Cl,< 1%

# Repeated from above (series 4):
target,remaining binding [%]
"NEK11 (Homo sapiens, UniProt Q8NG66)",90
"CDKL5 (Homo sapiens, UniProt O76039)",82
